# Measured values collected from several papers.
# A part holds a random share of what one study measured.

# Study 1
# Target: Interferon regulatory factor 5, full length, phosphomimetic (IRF5, Homo sapiens, UniProt Q13568-2, residues 1-514, K96S/S451D/S453D/S456D/S462D)
# Technique: protein-binding microarray
# Molecule type: double-stranded DNA, one strand shown
# Medium: in vitro
# Concentration: 250 nM
# Setting: 60-bp whole probe
# Added: salmon DNA 0.4 mg/ml
# Relative to: random background probes
# Direction: higher = stronger binding
Sequence,log fluorescence [z-score]
GCCTAGCACAATGACTCTATGAAGTAGTTGTGCTAGGTCTTGATTCGCTTGACGCTGCTG,-0.343
GCCTAGCACTTTGGTATCGGTATCGGTTAGTGCTAGGTCTTGATTCGCTTGACGCTGCTG,10.5
GCCTAGCACTTAGGTCGCGGACTGGGTTAGTGCTAGGTCTTGATTCGCTTGACGCTGCTG,-0.468
GCCTAGCACGACGGTTCCGGTTTCGGGAAGTGCTAGGTCTTGATTCGCTTGACGCTGCTG,5.26

# Study 2
# Target: RNA binding protein fox-1 homolog 2, RRM domain, GST-SBP tag (RBFOX2, Homo sapiens, UniProt O43251-10, residues 100-194)
# Technique: RNA Bind-n-Seq
# Molecule type: RNA
# Medium: in vitro
# Concentration: 365 nM
# Setting: natural RNA segment, single round, ends assumed
# Relative to: no-protein control
# Direction: higher = stronger binding
# Constant ends, left off below: GGGAGUUCUACAGUCCGACGAUC … UGGAAUUCUCGGGUGCCAA
Sequence,RBNS enrichment (R)
ACAUCACAUGAAUAAAGGUAUGUAUGUACGAAUGUGUAUAUAUUAUAUAUAUGACAUCUAUUUUGGAAAAUGUUUGCCCUGCUGUACCUCAUUUUUAGGAGGUGUGCAUG,0.995
UAAGACCUUUGAUCCCAGGUUCUAACUCAAAGAGGCUGACCUUCCCCCAGCUAAGAUAGCAUGAGGACGUUGUAUUCCAAUAUACGUAUGAUUGGGGCUACAAAGCUGAA,0.83
UUGGAGUGUGCCUGCCCCCCAGCCUGGAACCCUCUGAUCAACUUGCUGGGACCUAUAACGUCUUAGGUGCAACAAGGACCCUACCAGAGCUCCUGGGUGGCUUUGUGUGA,0.375
UGUAAGUAGGUACACUUGUGACGUCACUGACCUAGCGUACCUUUCCUUUUCAUAUCUACACUGACCUUAACUUAUAAAAAAAACAGAAAAGAAAAGCAAGUUUUAUAUAU,0.617
CAGAAGCCUCCCUUCUGUGCACAGGAGCCAGUUUCACAGAUGGAGAAGAUGUCUCAGAUGAAGGGAGUGUCCCUGAGAUAUCAUCCUUUUCUUCUGCCUCGCCUGAAUCC,0.374

# Study 3
# Target: Histone acetyltransferase KAT6A, winged helix 2, GST fusion (KAT6A, Homo sapiens, UniProt Q92794, residues 85-181)
# Technique: protein binding microarray
# Molecule type: double-stranded DNA, one strand shown
# Medium: in vitro
# Concentration: not given
# Setting: 8-mer, flanks averaged, mean of 2 arrays, mostly near background
# Relative to: not given
# Direction: higher = stronger binding
# Residues (chain): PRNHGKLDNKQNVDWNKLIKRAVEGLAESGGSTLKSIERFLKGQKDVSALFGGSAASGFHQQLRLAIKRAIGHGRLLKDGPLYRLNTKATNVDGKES
Sequence,E-score
GCTGACAC,0.157
CAATTACC,-0.177
AACCGGAC,-0.022
CTGGAAGC,0.0274
AAGAATGT,-0.0993

# Single results of other studies
Molecule,target,test,system,conditions,how to read,measurement,value
"PhoQ, residues 284 288 289 292 302 303 WVSSAF","PhoP, residues 12 14 15 18 19 IQSYL (Escherichia coli, UniProt P23836)","Sort-seq, item: YFP reporter",E. coli,"PhoQ-PhoP variant library, added: 10 µM Mg2+","relative to: high Mg2+ state, higher = stronger signaling",fold induction,49.8

# For quick reference, copied from above (study 2):
Sequence,RBNS enrichment (R)
UAAGACCUUUGAUCCCAGGUUCUAACUCAAAGAGGCUGACCUUCCCCCAGCUAAGAUAGCAUGAGGACGUUGUAUUCCAAUAUACGUAUGAUUGGGGCUACAAAGCUGAA,0.83
UUGGAGUGUGCCUGCCCCCCAGCCUGGAACCCUCUGAUCAACUUGCUGGGACCUAUAACGUCUUAGGUGCAACAAGGACCCUACCAGAGCUCCUGGGUGGCUUUGUGUGA,0.375
